Published values from different studies.
Parts stem from different laboratories: compare values within a part only.
UniProt P62344, sequence (whole entry, looked up): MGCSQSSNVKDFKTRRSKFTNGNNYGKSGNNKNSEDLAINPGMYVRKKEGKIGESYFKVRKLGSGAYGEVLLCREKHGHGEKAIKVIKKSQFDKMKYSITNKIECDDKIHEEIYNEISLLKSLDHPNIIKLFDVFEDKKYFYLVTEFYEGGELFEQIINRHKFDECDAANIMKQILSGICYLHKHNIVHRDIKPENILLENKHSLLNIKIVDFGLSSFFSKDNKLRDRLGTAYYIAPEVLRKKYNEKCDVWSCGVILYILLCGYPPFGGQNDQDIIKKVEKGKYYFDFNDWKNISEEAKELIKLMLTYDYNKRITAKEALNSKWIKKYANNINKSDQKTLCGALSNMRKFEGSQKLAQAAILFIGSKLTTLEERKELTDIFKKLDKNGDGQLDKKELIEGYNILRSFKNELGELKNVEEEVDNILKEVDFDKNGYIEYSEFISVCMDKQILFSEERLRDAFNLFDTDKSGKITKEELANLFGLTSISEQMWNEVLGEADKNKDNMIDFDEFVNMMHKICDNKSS
UniProt Q13188, sequence (whole entry, looked up): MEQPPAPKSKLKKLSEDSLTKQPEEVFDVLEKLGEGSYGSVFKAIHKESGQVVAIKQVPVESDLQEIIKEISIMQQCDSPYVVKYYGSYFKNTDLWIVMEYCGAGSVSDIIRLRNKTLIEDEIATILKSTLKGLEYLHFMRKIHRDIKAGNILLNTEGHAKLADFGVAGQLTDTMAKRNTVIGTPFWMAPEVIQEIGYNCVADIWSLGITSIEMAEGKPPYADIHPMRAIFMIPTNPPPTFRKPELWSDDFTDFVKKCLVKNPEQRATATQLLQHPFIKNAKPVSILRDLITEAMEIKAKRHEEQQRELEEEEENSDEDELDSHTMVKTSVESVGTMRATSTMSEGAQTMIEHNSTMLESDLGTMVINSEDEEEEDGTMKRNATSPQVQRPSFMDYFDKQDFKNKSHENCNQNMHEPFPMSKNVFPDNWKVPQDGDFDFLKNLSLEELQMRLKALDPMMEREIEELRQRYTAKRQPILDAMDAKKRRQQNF
UniProt Q05397, sequence (whole entry, looked up): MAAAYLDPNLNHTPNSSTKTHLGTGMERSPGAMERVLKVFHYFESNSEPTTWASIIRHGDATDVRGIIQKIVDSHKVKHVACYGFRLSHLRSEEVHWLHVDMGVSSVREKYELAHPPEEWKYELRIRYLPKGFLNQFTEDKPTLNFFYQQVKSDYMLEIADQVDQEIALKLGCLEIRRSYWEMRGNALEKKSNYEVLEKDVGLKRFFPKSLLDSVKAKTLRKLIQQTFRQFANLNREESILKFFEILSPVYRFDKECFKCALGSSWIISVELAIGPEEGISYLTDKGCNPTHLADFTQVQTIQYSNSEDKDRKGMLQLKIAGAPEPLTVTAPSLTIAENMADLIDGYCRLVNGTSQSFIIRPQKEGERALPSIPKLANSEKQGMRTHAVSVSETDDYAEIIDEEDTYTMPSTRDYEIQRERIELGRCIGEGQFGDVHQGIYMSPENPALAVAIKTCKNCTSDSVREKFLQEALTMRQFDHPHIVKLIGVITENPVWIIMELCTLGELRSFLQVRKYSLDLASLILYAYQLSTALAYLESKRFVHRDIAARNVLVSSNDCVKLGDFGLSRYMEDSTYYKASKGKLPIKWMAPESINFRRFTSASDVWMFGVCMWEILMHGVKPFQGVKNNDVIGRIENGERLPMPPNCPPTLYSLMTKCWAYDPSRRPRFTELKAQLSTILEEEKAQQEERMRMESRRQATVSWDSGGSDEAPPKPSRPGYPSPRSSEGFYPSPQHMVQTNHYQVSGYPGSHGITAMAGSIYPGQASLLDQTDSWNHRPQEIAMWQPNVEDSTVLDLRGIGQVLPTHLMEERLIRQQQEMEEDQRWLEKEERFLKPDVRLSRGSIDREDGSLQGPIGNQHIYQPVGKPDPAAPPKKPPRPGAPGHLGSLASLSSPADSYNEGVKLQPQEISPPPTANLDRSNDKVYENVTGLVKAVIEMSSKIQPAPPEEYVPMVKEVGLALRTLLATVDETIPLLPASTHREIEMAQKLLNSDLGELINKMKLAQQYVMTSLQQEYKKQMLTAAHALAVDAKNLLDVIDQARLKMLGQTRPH
UniProt P16234, sequence (whole entry, looked up): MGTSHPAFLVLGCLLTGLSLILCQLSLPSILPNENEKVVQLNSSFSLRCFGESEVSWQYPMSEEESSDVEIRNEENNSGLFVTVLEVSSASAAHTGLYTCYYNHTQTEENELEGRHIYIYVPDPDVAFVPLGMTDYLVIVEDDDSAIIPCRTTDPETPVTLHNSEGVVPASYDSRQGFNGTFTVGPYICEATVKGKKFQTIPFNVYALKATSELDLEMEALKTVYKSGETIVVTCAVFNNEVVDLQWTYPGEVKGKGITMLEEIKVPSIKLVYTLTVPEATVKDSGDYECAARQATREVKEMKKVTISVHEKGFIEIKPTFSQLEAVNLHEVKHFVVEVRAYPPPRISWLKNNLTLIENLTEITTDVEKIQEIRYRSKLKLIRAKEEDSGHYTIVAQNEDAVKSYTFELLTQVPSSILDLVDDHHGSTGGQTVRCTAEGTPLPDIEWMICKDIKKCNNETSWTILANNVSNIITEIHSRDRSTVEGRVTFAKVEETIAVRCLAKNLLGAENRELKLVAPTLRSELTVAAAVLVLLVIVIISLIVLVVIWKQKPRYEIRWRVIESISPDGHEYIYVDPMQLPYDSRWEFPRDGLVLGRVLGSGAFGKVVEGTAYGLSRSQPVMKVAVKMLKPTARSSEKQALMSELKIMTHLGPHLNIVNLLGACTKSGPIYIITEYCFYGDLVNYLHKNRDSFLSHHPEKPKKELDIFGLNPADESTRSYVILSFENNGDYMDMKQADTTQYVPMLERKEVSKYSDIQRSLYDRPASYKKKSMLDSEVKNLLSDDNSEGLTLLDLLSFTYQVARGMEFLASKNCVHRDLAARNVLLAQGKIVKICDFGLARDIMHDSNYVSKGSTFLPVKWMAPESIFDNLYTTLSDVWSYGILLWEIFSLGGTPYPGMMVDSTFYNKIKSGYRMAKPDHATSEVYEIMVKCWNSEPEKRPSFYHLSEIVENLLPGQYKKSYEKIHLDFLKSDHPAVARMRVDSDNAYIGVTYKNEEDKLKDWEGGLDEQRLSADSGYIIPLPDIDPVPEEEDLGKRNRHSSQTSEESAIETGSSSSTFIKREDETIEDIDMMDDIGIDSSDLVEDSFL
UniProt Q13882, sequence (whole entry, looked up): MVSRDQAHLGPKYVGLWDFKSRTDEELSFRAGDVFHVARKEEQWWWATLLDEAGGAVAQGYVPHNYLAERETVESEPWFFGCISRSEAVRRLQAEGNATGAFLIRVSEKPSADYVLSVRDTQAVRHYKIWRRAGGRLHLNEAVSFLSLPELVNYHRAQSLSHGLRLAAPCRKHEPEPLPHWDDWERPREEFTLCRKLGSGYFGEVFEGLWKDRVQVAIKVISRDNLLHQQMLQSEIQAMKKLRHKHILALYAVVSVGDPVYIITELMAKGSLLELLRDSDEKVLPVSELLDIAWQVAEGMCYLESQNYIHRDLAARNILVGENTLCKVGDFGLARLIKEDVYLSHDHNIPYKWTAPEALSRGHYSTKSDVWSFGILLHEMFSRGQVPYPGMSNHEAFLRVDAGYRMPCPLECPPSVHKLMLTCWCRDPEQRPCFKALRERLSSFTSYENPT

Study 1 — observed: enzyme activity; mode: inhibitor; tested at: 0.5 µM; baseline: control
SMILES: COC[C@H]1OC(=O)c2coc3c2[C@@]1(C)C1=C(C3=O)[C@@H]2CCC(=O)[C@@]2(C)C[C@H]1OC(C)=O
ZAP70 (Homo sapiens, UniProt P43403) — remaining activity: 91.6%.
It gave 106% for remaining activity (CHUK (Homo sapiens, UniProt O15111)).
PIM3 (Homo sapiens, UniProt Q86V86) — remaining activity: 93%.
It gave 88.3% for remaining activity (HASPIN (Homo sapiens, UniProt Q8TF76)).
For PDGFRA (Homo sapiens, UniProt P16234): remaining activity read 97.4%.
STK3 (Homo sapiens, UniProt Q13188) — remaining activity: 79.5%.
For STK4 (Homo sapiens, UniProt Q13043): remaining activity read 89.6%.
For PTK2 (Homo sapiens, UniProt Q05397): remaining activity read 98.2%.
It gave 81.7% for remaining activity (PTK6 (Homo sapiens, UniProt Q13882)).

Study 2 — cell line: Huh-7; tested at: 10 µM; time: 24 h
`CC[C@@H](CO)NC(=O)[C@@H]1C=C2c3cccc4[nH]cc(c34)C[C@H]2N(C)C1` has a viability of 88.7%.
`CC(Cc1ccc(O)cc1)NCC(O)c1cc(O)cc(O)c1` (centres unmarked) has a viability of 99.6%.
`C[C@@H]1C[C@@H]([C@H](O)CC2CC(=O)NC(=O)C2)C(=O)[C@@H](C)C1` gave a viability of 53%.
`C#C[C@]1(O)CC[C@H]2[C@@H]3CCC4=CC(=O)CC[C@]4(C)[C@H]3CC[C@@]21C` gave a viability of 97.2%.
With `O=C1CCO1` the viability was 98.3%.
The viability of `NCCc1cc(O)c(O)cc1O` is reported as 48.7%.
For `CCOC(=O)c1cncn1[C@H](C)c1ccccc1`, the viability was 98.5%.

Other studies, line by line
HTR2C: 5-hydroxytryptamine receptor 2C (HTR2C, Homo sapiens, UniProt P28335)
UniProt P28335, sequence (whole entry, looked up): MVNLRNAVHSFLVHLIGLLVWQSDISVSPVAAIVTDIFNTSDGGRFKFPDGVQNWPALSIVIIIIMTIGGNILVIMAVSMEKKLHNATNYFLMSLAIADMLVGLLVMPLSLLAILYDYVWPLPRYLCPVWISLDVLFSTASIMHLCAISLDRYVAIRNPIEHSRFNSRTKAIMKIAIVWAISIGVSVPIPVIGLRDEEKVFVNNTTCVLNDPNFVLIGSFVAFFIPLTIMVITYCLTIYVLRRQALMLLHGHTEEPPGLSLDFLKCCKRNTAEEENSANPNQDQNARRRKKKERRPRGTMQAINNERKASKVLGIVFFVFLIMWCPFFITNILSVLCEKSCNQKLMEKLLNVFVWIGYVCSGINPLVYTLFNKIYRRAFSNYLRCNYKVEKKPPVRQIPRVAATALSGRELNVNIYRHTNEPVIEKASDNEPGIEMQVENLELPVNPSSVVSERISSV
ADRB1: Beta-1 adrenergic receptor (ADRB1, Homo sapiens, UniProt P08588)
UniProt P08588, sequence (whole entry, looked up): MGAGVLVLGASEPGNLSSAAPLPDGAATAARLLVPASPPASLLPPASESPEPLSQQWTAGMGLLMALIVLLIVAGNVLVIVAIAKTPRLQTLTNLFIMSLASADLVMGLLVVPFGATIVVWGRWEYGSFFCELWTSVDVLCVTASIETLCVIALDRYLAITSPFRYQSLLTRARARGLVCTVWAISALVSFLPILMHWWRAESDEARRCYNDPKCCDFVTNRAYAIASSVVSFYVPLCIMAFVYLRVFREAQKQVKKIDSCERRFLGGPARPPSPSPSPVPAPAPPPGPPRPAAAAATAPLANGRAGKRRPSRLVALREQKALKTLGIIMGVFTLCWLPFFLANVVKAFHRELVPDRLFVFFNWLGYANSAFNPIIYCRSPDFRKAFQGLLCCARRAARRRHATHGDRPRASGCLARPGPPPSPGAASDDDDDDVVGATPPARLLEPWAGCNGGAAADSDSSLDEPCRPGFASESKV
With `O=C(Nc1cnc(Oc2ccc(F)cc2)nc1)N1CCc2ncccc2[C@@H]1c1ccc(F)cc1` the inhibition was 18.3% (HTR2C; binding, radioligand binding; 10 µM).
For `C[C@@H](O)[C@H](NC(=O)[C@H]1NC(=O)[C@H]([C@@H](C)O)NC(=O)[C@H](CCCN)NC(=O)[C@@H](Cc2c[nH]c3ccccc23)NC(=O)[C@H](Cc2ccc(O)cc2)NC(=O)[C@@H](NC(=O)[C@H](N)Cc2ccccc2)CSSC1(C)C)C(N)=O`, the EC50 was ≥ 100 µM (ADRB1; agonist).
`CCCOc1ccc([C@H]2[C@H](C(=O)O)[C@@H](c3ccc4c(c3)OCO4)CN2CC(=O)Nc2c(CC)cccc2CC)cc1` has an inhibition of -5.44% (HTR2C; binding, radioligand binding; 10 µM).
The remaining compound of `CC(=O)Oc1ccc(/C=C/c2cc(OC(C)=O)cc(OC(C)=O)c2)cc1` is reported as 5.03% (mouse, microsomes or S9; 2 µM, 0.5 h).
For `Cc1nc(N2CC[C@@H](O)C2)ncc1-c1cc(C(F)(F)F)cc2[nH]ncc12`, the remaining binding was 100% (CDPK1 (Plasmodium falciparum, UniProt P62344); cell-free assay, competition with immobilised ligand; 1 µM).
The EC50 of `FC(F)(F)c1cccc(N2CCNCC2)c1` is reported as ≥ 100 µM (ADRB1; agonist).
`CCCCN(CCCC)C(=O)CN1C[C@@H](c2cc(OC)c3c(c2)OCO3)[C@H](C(=O)O)[C@H]1CC(C)(C)CCC` has a remaining binding of 95.9% (PIK3CA (Homo sapiens, UniProt P42336); cell-free assay, competition with immobilised ligand; 1 µM).

Repeated from above (other studies, line by line):
With `O=C(Nc1cnc(Oc2ccc(F)cc2)nc1)N1CCc2ncccc2[C@@H]1c1ccc(F)cc1` the inhibition was 18.3% (HTR2C; binding, radioligand binding; 10 µM).
